Measured values from different studies.
Every numbered part comes from another study and shows a few of its results, in no order.

Block 1
Target: Sal-like protein 4, full length isoform B (SALL4, Homo sapiens, UniProt Q9UJQ4-2, residues 1-616)
Method: universal PBM
Form: double-stranded DNA, one strand shown
Matrix: in vitro
Tested at: not given
Setting: 8-mer, flanks averaged, mean of replicates
Reading: higher = stronger binding
| Strand | E-score |
| --- | --- |
| ACACGCGT | -0.0578 |
| CCGAAATC | 0.0272 |
| GACCGTCC | -0.302 |
| AGATTCTG | -0.0523 |
| CTTAGGCC | -0.211 |
| AAGACAAT | 0.271 |
| CTAGAATA | 0.296 |
| ATTCTAAG | 0.0819 |
| CAGTACTC | 0.00391 |
| ATCAGTGA | 0.00867 |
| AGAGTGGA | -0.0668 |
| GCCACACA | -0.123 |
| ATCGCTTA | -0.0421 |
| CCCGGACA | -0.221 |
| CAAGCAGA | 0.0177 |
| ATAATCAC | 0.302 |
| CCTTCCCG | -0.252 |
| AGTACGTA | 0.208 |
| GCCGCGAA | -0.224 |
| AACAGTAT | 0.279 |
| TGTAGTAA | 0.277 |
| GATGGCCC | -0.387 |

Block 2
Target: RNA binding protein fox-1 homolog 2, RRM domain, GST-SBP tag (RBFOX2, Homo sapiens, UniProt O43251-10, residues 100-194)
Method: RNA Bind-n-Seq
Form: RNA
Matrix: in vitro
Tested at: 365 nM
Setting: natural RNA segment, single round, ends assumed
Reference: no-protein control
Reading: higher = stronger binding
Constant ends, left off below: GGGAGUUCUACAGUCCGACGAUC … UGGAAUUCUCGGGUGCCAA
Target sequence (chain): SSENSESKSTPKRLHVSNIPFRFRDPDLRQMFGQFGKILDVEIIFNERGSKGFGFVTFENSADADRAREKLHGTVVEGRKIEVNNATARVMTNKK
| Strand | RBNS enrichment (R) |
| --- | --- |
| AACAGAAGCCUCAAUGAUGAUCACUUUGAAUUGCUUGUGAUUUCAAAAAUAAAGCAGUGAAGCAAUACUUGUGUACACUGGUACUUUAUAAUGCUAACUAUAAACUGGUU | 0.846 |
| UGUGCUUAUUUGGAAUUUCCAUAAAAAGAGUAUCCUUUUUAUACACUUAAUAGUGACUUUACAAAAUAAAAGUUAUAUUCUCAGUUGUUUAAAAUCACUAACCUAUGAUA | 0.642 |
| CAAAACAUUCACCCGUAAUAGACUGAGAAUUGAGCCUUAACUUCAGAUUAACUUGUGAGAAUCAGGAAAAUUCCUUCAACUGCAUUGCAUCCUCUUGGACCAGGGCUAGA | 1.95 |
| AACUGGGGAAGCUUCUGUACUAGUCUCCUUCAACGCAGCUGGCUUUGACUGAGUGCUUUGACAGUUUGAGACUUCACCAAGUAUAGUAGAAAAACAAAUGGCCUCAACUU | 0.235 |
| AAUGUAGUACCUCAUAGUUAAAACUUUCUUCAUUCACAGCCUUUCCCUUUCACAGUAAAACAUGCUUAGCUUUCUGUGUCUUUCUUUUAGUCAUGAUAAAAAUGAAGCUG | 0.892 |
| CAUAUAGCCAGCAAAUGGAGGACUCCUAACUUCAGCACAAGUGGGUUUGGAGUGGCAGAGGCCAUACUUUCUUUGCCUCAGCUUCUCUCCUUCCUGCUGCCCUAUCCUCU | 0.255 |
| UUCAUAACAUAUGGAAUGCUUUAAGCAAUUGUUUUGAAAAAAAUCUGCGUAUCUUUGACUUAAUUGGCACAUGACUUUUUCAAGCAGCCAUUCAUUCAGAGGUUUGUUUU | 0.422 |
| CCAGGGCCUGCAUGGGGGCACCGGGCUCCAUGCCUCUGGAGGCCUCUGGCCCUCGGUGGCUGCACAGAAGGGCUCUUUCUCUCUGCUGAGCUGGGCCCAGCCCCUCCACG | 4.62 |
| AAGGAAUUAUGGGUGGGUAUUUUUUUAAUUGAACUCAUUUUUCGGUUGUCUGACCAUAACAUGAUUUUUUUCUAAGAUGAAAUCCACAGAAGUUCUUAACUGUUAAAAAG | 0.304 |
| CGGUGCAGCUGAGGUUCCCGACACCAGAAGCUGUUGGGAGAAAGCAAUACGUUUGUGCAGAAUCUCUAUGUAUAUUCUAUUUUAUUAAAUUAAUUGAAUCUAGUAUAUGC | 0.939 |
| UGUGAUCACACUACGGGAAUCUCUGUGGUAUAUACCUGGGGCCAUUCUAGGCUCUUUCAAGUGACUUUUGGAAAUCAACCUUUUUUAUUUGGGGGGGAGGAUGGGGAAAA | 0.611 |
| AUUCUAGCCCCACUAUGCGGGGGUGCUGUUGUCCUGCCUGUGUCUCAUCCCCAGCUGCCUAAGCUAGGGACACUCAAGUGCUUCCUUCCUUGCCCCAUCUUCCUCCCAAC | 0.254 |

Block 3
Target: Interferon regulatory factor 3, full length, phosphomimetic (IRF3, Homo sapiens, UniProt Q14653, residues 1-427, S386D/S396D/S398D/S402D/T404D/S405D)
UniProt Q14653, sequence (whole entry, unmodified, looked up): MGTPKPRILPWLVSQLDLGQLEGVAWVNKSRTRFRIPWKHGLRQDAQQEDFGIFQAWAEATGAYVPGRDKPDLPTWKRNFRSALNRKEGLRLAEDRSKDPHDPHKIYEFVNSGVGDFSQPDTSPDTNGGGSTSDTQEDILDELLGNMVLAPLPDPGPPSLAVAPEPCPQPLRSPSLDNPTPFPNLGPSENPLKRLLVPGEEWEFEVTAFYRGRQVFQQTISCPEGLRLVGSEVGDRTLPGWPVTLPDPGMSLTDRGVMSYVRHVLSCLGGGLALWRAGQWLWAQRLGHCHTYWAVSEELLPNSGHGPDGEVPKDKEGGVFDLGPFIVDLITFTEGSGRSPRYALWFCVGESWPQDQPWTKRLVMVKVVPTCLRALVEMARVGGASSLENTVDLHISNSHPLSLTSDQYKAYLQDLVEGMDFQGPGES
Method: protein-binding microarray
Form: double-stranded DNA, one strand shown
Matrix: in vitro
Tested at: 2540 nM top
Setting: 60-bp whole probe
Added: salmon DNA 0.4 mg/ml
Reference: random background probes
Reading: higher = stronger binding
Constant ends, left off below: GCCTAGCAC … GTCTTGATTCGCTTGACGCTGCTG
| Strand | fitted relative affinity [z-score] |
| --- | --- |
| GACGAACTGGGGCCTGGAGACGTGCTA | -0.793 |
| GACGAACTGATTTTCGAGACGTGCTAG | 0.656 |
| TTAGATTTCAGTATCGATTGGTGCTAG | 2.23 |
| TCAAGAATAATTTTTTAGACTGTGCTA | -0.391 |
| TTGGGTCTGGGTATTTTTCTGTGCTAG | -0.948 |
| TTAGGACTGGGTGTCGGTTAGTGCTAG | -0.0767 |
| TTAGGTATCTGTCTCGGTTAGTGCTAG | 2.1 |
| TTAGGTATCGGTCTCGGTTCGTGCTAG | 4.72 |
| GACGGTTTCCTTTCGCTGACGTGCTAG | 8.51 |
| GGTGGGGTGCAGCAGGGCCAGTGCTAG | -1.33 |
| GACGGACTGGCTATCGGGACGTGCTAG | -0.575 |
| TCAAATTAGTGTTTCCCACTGTGCTAG | 1.78 |
| CCATTTCTGTTTTTGCTTTCGTGCTAG | 3.92 |
| TTAGATATCCTTCTCCTTTAGTGCTAG | 4.35 |
| GACGAACTGAGTATAGAGACGTGCTAG | -0.13 |
| GACGGTATTGACACTGGGGACGTGCTA | -0.317 |
| TTAGATTCCAGTATCGATTAGTGCTAG | 2.53 |
| TTTGGTATCCTACTGCTTTAGTGCTAG | 2.92 |
| GACGAACTGGTGTTTCGAGACGTGCTA | 0.436 |
| ACCTGTATATCTTCAGCGGGGTGCTAG | 0.429 |
| GACGGTTTCGACACTGCGGACGTGCTA | 3.27 |
| TCATATGTGTATATATAACTGTGCTAG | 0.406 |

Block 4
Target: Histone acetyltransferase KAT6A, winged helix 1, GST fusion (KAT6A, Homo sapiens, UniProt Q92794, residues 1-85)
Method: protein binding microarray
Form: double-stranded DNA, one strand shown
Matrix: in vitro
Tested at: not given
Setting: 8-mer, flanks averaged, mean of 2 arrays, mostly near background
Reference: not given
Reading: higher = stronger binding
Target sequence (chain): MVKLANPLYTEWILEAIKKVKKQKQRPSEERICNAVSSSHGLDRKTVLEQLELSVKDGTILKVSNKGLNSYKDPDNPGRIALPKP
| Strand | E-score |
| --- | --- |
| CATAGGCC | 0.0753 |
| AAATGGTT | -0.059 |
| CCGTGTAC | 0.263 |
| GCGCATCA | 0.263 |
| ACCCCGCT | 0.225 |
| GTAACCAA | -0.0282 |
| AGCTGACC | -0.144 |
| ATATCCAC | -0.0874 |
| GCCGAACA | 0.0889 |
| ACACAGCC | -0.0263 |
| GATGGCTA | -0.0264 |
| ACGGTAGC | 0.121 |
| ACTTACAT | -0.178 |
| CAAATGGC | -0.0187 |
| AGCCGAAA | -0.124 |
| CCTATCAG | -0.178 |
| GCATTCTA | -0.105 |
| CGTTTGCC | 0.107 |
| TCGTTAGA | -0.129 |
| CACACGCA | -0.000235 |

Block 5
Target: Ras GTPase-activating protein-binding protein 1, RRM domain (G3BP1, Homo sapiens, UniProt Q13283)
UniProt Q13283, sequence (whole entry, looked up): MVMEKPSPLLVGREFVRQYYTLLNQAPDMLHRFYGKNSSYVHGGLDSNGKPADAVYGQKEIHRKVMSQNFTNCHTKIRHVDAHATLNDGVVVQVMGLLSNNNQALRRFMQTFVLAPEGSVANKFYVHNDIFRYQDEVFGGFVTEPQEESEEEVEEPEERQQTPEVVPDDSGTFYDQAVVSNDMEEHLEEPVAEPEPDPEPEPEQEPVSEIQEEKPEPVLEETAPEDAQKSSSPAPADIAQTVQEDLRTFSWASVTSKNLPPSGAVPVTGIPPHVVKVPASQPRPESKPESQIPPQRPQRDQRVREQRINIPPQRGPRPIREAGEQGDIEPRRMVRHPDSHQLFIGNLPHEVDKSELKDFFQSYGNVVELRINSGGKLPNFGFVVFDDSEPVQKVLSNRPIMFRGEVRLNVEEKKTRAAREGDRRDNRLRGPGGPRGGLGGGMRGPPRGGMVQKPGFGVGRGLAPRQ
Method: RNA Bind-n-Seq
Form: RNA
Matrix: in vitro
Tested at: 1 µM
Setting: whole 134-nt RNA, ends assumed
Added: 150 mM KCl
Reference: input library
Reading: higher = stronger binding
Constant ends, left off below: GGGAGUUCUACAGUCCGACGAUC … UGGAAUUCUCGGGUGUCAAGG
| Strand | log2 enrichment |
| --- | --- |
| GUCCUGUGCUACACAUCGUAUGUACCGAAUCGGGGUGGGGUUUGGGGAAAAAAAGGGGAAAGUAUUAUGUUACGCCGUUCGGAUCUGCAC | 0.737 |
| UGGCCCUGGUGGCAUGCGGGGAGGAAGAGGUGGCCUCAUGGAUCGUGGUGGUCCCGGUGGAAUGUUCAGUGGUGGCCGUGGUGGAGACAG | 2.39 |
| UGGGAGGUGGAUUUUGUUUAUUUUUUUGGCUCAUUUCCAGGGGUGGGAAUUUUUUUUUAAUAUGUGUCAUGAAUAAAGUUGUUUUUGAAA | 2.1 |
| ACCAUGCAGGUGGGCAUCUUUGGGAAGUGGGGCAAGGGGGGGAUAGGGAGGGGGGUAACACUUUGGGUACAGGUGGUCCCAGGUCGUUUC | 0.858 |
| GCAGGAAGUAAAAACAAAUGGAAAUGCUUAGGAUAGUGGCAGGGGUGGGGGUUGCUAAGGAAAGGGUGGGAUGGGAGUGGGUAAAGAGUU | 1.52 |
| UCAAGUCCUGUGCUACACAUCGUAUGUACCGAAUCGGAAAAAGGAAAAAGGUGGAAAGUAUUAUGUUACGCCGUUCGGAUCUGCACUUCC | -0.0936 |
| GUCCUGUGCUACACAUCGUAUGUACCGAAUCGGGUUUUUUUGGGAGGGAAAAAAAGGGAAAGUAUUAUGUUACGCCGUUCGGAUCUGCAC | -0.0437 |
| AGUCCUGUGCUACACAUCGUAUGUACCGAAUCGGGGUUUGGGGAGGGGUUUUUGGGGAAAGUAUUAUGUUACGCCGUUCGGAUCUGCACU | 0.923 |
| CACAGACAACACGCACCCACACAGACACAGAGGGAAGGGGUUGGGAAGGGGACAGGGUGCACAGCAGGGCGGGGUAGGACCCCAGCCCCU | -0.0937 |
| UCCUGUGCUACACAUCGUAUGUACCGAAUCGGCCCCCCGGGCCCCCCGGGGCCCCCCGGAAAGUAUUAUGUUACGCCGUUCGGAUCUGCA | -0.391 |
| AGGACGUGCAGAACUUCCUCUCUGACUGCACGAUUCAUGAUGGGGCCGCAGGUGUCCAUUUCAUCUACACUAGAGAGGGCAGGCAGAGUG | -0.115 |
| ACCAUGCAGGUGGGCAUCUUUGGGAAGUGGGGCAAGGGGGGGAUAGGGAGGGGGGUAACACUUUGGGAACAGGGGGUCCCAGGUCGUUUC | 0.769 |
| CUCAAGUCCUGUGCUACACAUCGUAUGUACCGAAUCGGGUUUGGGUGGGUGGGAAAGUAUUAUGUUACGCCGUUCGGAUCUGCACUUCCA | 0.677 |
| CACAGACAACACGCACCCACACAGACACAGAGGGAAGGGGUUGGGAUGAGGACAGGGUGCACAGCAGGGCGGGGUAGGACCCCAGCCCCU | 0.00804 |
